Results of several laboratories.
Parts stem from different laboratories: compare values within a part only. Substitutions count along the parent as printed.

Study 1 — method: protein-binding microarray; form: double-stranded DNA, one strand shown; matrix: in vitro; concentration: 2540 nM top; setting: 60-bp whole probe; added: salmon DNA 0.4 mg/ml; reference: random background probes; direction: higher = stronger binding; all sequences stand within: GCCTAGCAC … GTCTTGATTCGCTTGACGCTGCTG
Target: Interferon regulatory factor 3, full length, phosphomimetic (IRF3, Homo sapiens, UniProt Q14653, residues 1-427, S386D/S396D/S398D/S402D/T404D/S405D)
Target sequence (chain): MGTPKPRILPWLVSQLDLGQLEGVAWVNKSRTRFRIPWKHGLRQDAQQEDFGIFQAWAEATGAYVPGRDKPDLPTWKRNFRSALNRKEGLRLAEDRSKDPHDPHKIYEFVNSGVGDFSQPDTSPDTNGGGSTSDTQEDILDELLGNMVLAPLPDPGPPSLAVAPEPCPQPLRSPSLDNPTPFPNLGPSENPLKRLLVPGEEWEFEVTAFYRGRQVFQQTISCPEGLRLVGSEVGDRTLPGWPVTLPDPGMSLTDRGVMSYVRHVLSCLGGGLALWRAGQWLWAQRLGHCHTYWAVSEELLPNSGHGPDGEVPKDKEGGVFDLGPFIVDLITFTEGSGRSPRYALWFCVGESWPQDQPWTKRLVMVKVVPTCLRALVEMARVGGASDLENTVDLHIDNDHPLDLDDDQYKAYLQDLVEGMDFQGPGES
Oligonucleotide	fitted relative affinity [z-score]
TCAAGTGTGCCATATTTAACTGTGCTA	0.242
TTAGGTATCAGTCTCGGTTAGTGCTAG	3.77
TTCGAATTCAGAATGGGAGAGTGCTAG	0.774
ACTCCTATCCAAGTTCCCCTGGTGCTA	1.2
ATTCATATATATATGAAAAAGTGCTAG	1.46
GATGGTTTCCTTTCCCTGACGTGCTAG	10.4
TTCGGACTGGGGTATCGGTTAGTGCTA	0.0228
GACGGCTTCCTTTTCCTGACGTGCTAG	2.09

Study 2 — method: RNA Bind-n-Seq; form: RNA; matrix: in vitro; concentration: not given; setting: RNA with constant flanks, ends assumed; reference: input RNA pool; direction: higher = stronger binding
Target: RING finger protein unkempt homolog, zinc fingers 1-6, GST-SBP tag (UNK, Homo sapiens, UniProt Q9C0B0, residues 30-357)
Sequence of UniProt Q9C0B0 (30-357, looked up): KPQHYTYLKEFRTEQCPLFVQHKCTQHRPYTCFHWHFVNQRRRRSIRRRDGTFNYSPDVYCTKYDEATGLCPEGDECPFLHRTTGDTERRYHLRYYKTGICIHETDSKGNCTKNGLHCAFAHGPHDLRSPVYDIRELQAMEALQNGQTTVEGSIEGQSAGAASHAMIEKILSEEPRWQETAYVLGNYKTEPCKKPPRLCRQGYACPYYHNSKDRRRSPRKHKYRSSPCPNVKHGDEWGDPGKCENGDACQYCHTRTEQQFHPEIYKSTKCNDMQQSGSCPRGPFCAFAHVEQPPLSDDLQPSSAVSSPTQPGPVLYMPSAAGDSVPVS
Oligonucleotide	bound/input enrichment [ratio]
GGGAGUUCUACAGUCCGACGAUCUGGACAGCUGAUAAAUUUAAUCCUUCUUUGUAAUACUUUCUAUGUGACAUUUCUCUUCCCCUCCGAAACACUGCAAAUUUUAACUGUAGGUAUGAUCUCUUCUGGUGUUGACUGGACUGCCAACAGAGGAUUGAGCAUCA	2.09
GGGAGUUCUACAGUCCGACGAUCGCUGAGGGAGUCGACUUAAUUAAGGUCUUCGCAAAAACAGAAGCACAGAGAGGAGCAUAUACCGAAUCCGCACUUCAAACUUAUCAAGAAAUAGUUACCAGUCAUUCCGCAGCAUCCUGACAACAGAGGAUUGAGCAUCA	0.296
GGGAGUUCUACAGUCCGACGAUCGGGCACUGCAGCGUUGGAACGUGAGCCUCGGAUUUCCUGGCCCCUCUACUGUAAAUGUGCCUCCGCCUAAGCCUCCCAUCCUGUGUUAGCGUUGCCUGGUGCGGGGCAGGGCCUAACAAGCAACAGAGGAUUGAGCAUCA	0.106
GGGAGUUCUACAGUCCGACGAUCACGUGCUGCCAGCUGAGAGACUACCUGUCCGCCGGAGCAGAAACCUUCCUGCUGCGACUUUACCGGAAAACUUUUGAGAAGGAUGGCAAAGCUGAAGAAGUGUGGGUAAAUGUUAGAAAGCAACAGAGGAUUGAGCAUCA	0.145
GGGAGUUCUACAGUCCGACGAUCCCAAAGAAACUCCAUUUAUGUCCCUUGUGUGGCAAAAAUUUCUCUAACAACUCAAACCUAAUCCGGCACCAGAGAAUACAUGCAGCUGAAAGACUGUGUAUGGGUGUGGACUGCACUGAACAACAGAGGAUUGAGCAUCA	0.178
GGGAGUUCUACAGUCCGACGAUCCUUGACUUUCUACGAAUUAGUGACACAGAAAAGCUUCCAGAAUUUAAGAGCUUUGAAGAACCCGAAUUUCCUAAGCAUUCAAAAGUCAAACGGCAGAGCAGUACCGCAGAUGCUCCUGAGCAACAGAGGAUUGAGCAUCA	0.446
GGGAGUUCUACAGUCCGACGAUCUUUGAUGAGUUCAGAACAGUGCUGUAACUGUUUUUCCUACUUCUUCAAUGGAAGGAUUGUCCUCCGAUCUUCCCACCAUCACAAAUGAAUUUGAAGAUGAAAAGAAACUCAGUUGCUCAUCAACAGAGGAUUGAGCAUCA	0.0724
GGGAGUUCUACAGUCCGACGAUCGACGCUAGUGAUGGGACAGUACGACUUCGUGGACUACCAUUUGGUUGCAGCAAAGAGGAAACCGUUCAGUUCUUUCAAGGGUUGGAAAUCGUGCCAAAUGGGAUAACAUUGACGAUGGACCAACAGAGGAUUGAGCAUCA	0.195

Mixed results
P1: viral docking peptide; TSVRRALFTGGSD; partner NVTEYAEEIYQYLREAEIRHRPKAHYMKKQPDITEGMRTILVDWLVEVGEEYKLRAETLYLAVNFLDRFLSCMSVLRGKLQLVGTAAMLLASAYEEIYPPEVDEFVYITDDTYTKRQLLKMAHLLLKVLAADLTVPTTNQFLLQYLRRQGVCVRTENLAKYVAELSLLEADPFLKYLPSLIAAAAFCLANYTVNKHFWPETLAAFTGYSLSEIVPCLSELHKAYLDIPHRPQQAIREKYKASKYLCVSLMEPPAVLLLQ
Substance	tested on	assay	test system	setting	scale	measurement	value
XPNPEP1 (Homo sapiens, UniProt Q9NQW7)	PLEKHG1 (Homo sapiens, UniProt Q9ULL1)	cross-linking MS	cell fractions	added: DSSO	–	cross-linked residues	K287 to K675
P1 V3L	CCNA1, cyclin fold, Cln2 fusion (human)	yeast growth competition, sequencing	yeast	strong parent motif	reference: not given, higher = stronger binding	normalised enrichment score	0.184
DEK (Homo sapiens, UniProt P35659)	SSH1 (Homo sapiens, UniProt Q8WYL5)	cross-linking MS	cell fractions	added: DSSO	–	cross-linked residues	K177 to S576
ANK3 (Homo sapiens, UniProt Q12955)	SMG5 (Homo sapiens, UniProt Q9UPR3)	cross-linking MS	cell fractions	added: DMTMM	–	cross-linked residues	D2575 to K278
UFL1 (Homo sapiens, UniProt O94874)	MYH14 (Homo sapiens, UniProt Q7Z406)	cross-linking MS	cell fractions	added: DHSO	–	cross-linked residues	D147 to E1419

Excerpt of the above (study 2):
Oligonucleotide	bound/input enrichment [ratio]
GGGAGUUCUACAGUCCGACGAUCGGGCACUGCAGCGUUGGAACGUGAGCCUCGGAUUUCCUGGCCCCUCUACUGUAAAUGUGCCUCCGCCUAAGCCUCCCAUCCUGUGUUAGCGUUGCCUGGUGCGGGGCAGGGCCUAACAAGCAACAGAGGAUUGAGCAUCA	0.106
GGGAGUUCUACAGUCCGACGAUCGCUGAGGGAGUCGACUUAAUUAAGGUCUUCGCAAAAACAGAAGCACAGAGAGGAGCAUAUACCGAAUCCGCACUUCAAACUUAUCAAGAAAUAGUUACCAGUCAUUCCGCAGCAUCCUGACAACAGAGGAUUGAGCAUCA	0.296
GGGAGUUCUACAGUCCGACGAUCCUUGACUUUCUACGAAUUAGUGACACAGAAAAGCUUCCAGAAUUUAAGAGCUUUGAAGAACCCGAAUUUCCUAAGCAUUCAAAAGUCAAACGGCAGAGCAGUACCGCAGAUGCUCCUGAGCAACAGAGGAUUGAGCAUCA	0.446
